# Measurements pooled from the literature.
# Lines come from different studies, so protocols differ.
SMILES,organism,assay,test system,conditions,MIC
CC(C)C1NC(=O)C(C(=O)NC(C(=O)NC2C(=O)N3C2SC(C)(C)C3C(=O)O)c2ccccc2)=C1O (centres unmarked),Escherichia coli,broth microdilution,ATCC 25922 wild type,no clavulanic acid,12.5 µg/mL
CC[C@H]1OC(=O)[C@H](C)[C@@H](O[C@H]2C[C@@](C)(OC)[C@@H](O)[C@H](C)O2)[C@H](C)[C@@H](O[C@@H]2O[C@H](C)C[C@H](N(C)C)[C@H]2O)[C@](C)(O)C[C@@H](C)CN(C)[C@H](C)[C@@H](O)[C@]1(C)O,Neisseria gonorrhoeae,,ATCC 49226,,0.25 µg/mL
CC[C@H]1OC(=O)[C@H](C)[C@@H](O[C@H]2C[C@@](C)(OC)[C@@H](O)[C@H](C)O2)[C@H](C)[C@@H](O[C@@H]2O[C@H](C)C[C@H](N(C)C)[C@H]2O)[C@](C)(O)C[C@@H](C)CN(C)[C@H](C)[C@@H](O)[C@]1(C)O,Neisseria gonorrhoeae,broth microdilution,WHO N,1.5 h,0.25 µg/mL
c1ccc(OCCn2c(CNC34CC5CC(CC(C5)C3)C4)nc3ccccc32)cc1,Enterobacter aerogenes,,ATCC 35029,,> 128 µg/mL
OC(Cn1cncn1)(Cn1cncn1)c1ccc(F)cc1F,Candidozyma auris,inhibitor,280,24 h,128 µg/mL
CC1(C)S[C@@H]2[C@H](NC(=O)[C@H](N)c3ccccc3)C(=O)N2[C@H]1C(=O)O,Escherichia coli,broth microdilution,ATCC 25922 wild type,added: clavulanic acid 6 µg/mL,1.56 µg/mL
CC(C)(CN)CNCc1nc2ccccc2n1CCOc1ccccc1,Enterobacter aerogenes,,ATCC 35029,,16 µg/mL
CC1(C)S[C@@H]2[C@H](NC(=O)Cc3ccccc3)C(=O)N2[C@H]1C(=O)O,Neisseria gonorrhoeae,broth microdilution,WHO F,1.5 h,2 µg/mL
CC[C@H](C)[C@H](NC(=O)[C@H](CCCCN)NC(=O)[C@H](CCC(=O)O)NC(=O)CNC(=O)CNC(=O)[C@H](CCCCN)NC(=O)[C@H](CCCNC(=N)N)NC(=O)[C@H](CC(C)C)NC(=O)[C@H](CC(C)C)NC(=O)CN)C(=O)NCC(=O)N[C@@H](CCC(=O)O)C(=O)N[C@@H](CCCCN)C(=O)N[C@@H](CC(C)C)C(=O)N[C@@H](CCCCN)C(=O)N[C@@H](CCCCN)C(=O)N[C@H](C(=O)NCC(=O)N[C@@H](CCC(N)=O)C(=O)N[C@@H](CCCCN)C(=O)N[C@H](C(=O)N[C@@H](CCCCN)C(=O)N[C@@H](CC(N)=O)C(=O)N[C@@H](Cc1ccccc1)C(=O)N[C@@H](Cc1ccccc1)C(=O)N[C@@H](CCC(N)=O)C(=O)N[C@@H](CCCCN)C(=O)N[C@@H](CC(C)C)C(=O)N[C@H](C(=O)N1CCC[C@H]1C(=O)N[C@@H](CCC(N)=O)C(=O)N1CCC[C@H]1C(=O)N[C@@H](CCC(=O)O)C(=O)N[C@@H](CCC(N)=O)C(=O)O)C(C)C)[C@@H](C)CC)[C@@H](C)CC,Micrococcus luteus,broth microdilution,ATCC 4698,,2.06 µM
CO/N=C(\C(=O)N[C@@H]1C(=O)N2C(C(=O)O)=C(CSc3nc(=O)c(O)nn3C)CS[C@H]12)c1csc(N)n1,Neisseria gonorrhoeae,broth microdilution,WHO M,1.5 h,0.25 µg/mL
CC(C)C[C@@H]1NC(=O)[C@@H](Cc2ccccc2)NC(=O)[C@H](CCN)NC(=O)[C@@H](NC(=O)[C@H](CCN)NC(=O)[C@@H](N)[C@@H](C)O)CCNC(=O)[C@H]([C@@H](C)O)NC(=O)[C@H](CCN)NC(=O)[C@H](CCN)NC1=O,Escherichia coli,,ATCC 25922,"in combination, checkerboard, added: rifampicin",6.25 µg/mL

# For quick reference, copied from above:
SMILES,organism,assay,test system,conditions,MIC
CC[C@H](C)[C@H](NC(=O)[C@H](CCCCN)NC(=O)[C@H](CCC(=O)O)NC(=O)CNC(=O)CNC(=O)[C@H](CCCCN)NC(=O)[C@H](CCCNC(=N)N)NC(=O)[C@H](CC(C)C)NC(=O)[C@H](CC(C)C)NC(=O)CN)C(=O)NCC(=O)N[C@@H](CCC(=O)O)C(=O)N[C@@H](CCCCN)C(=O)N[C@@H](CC(C)C)C(=O)N[C@@H](CCCCN)C(=O)N[C@@H](CCCCN)C(=O)N[C@H](C(=O)NCC(=O)N[C@@H](CCC(N)=O)C(=O)N[C@@H](CCCCN)C(=O)N[C@H](C(=O)N[C@@H](CCCCN)C(=O)N[C@@H](CC(N)=O)C(=O)N[C@@H](Cc1ccccc1)C(=O)N[C@@H](Cc1ccccc1)C(=O)N[C@@H](CCC(N)=O)C(=O)N[C@@H](CCCCN)C(=O)N[C@@H](CC(C)C)C(=O)N[C@H](C(=O)N1CCC[C@H]1C(=O)N[C@@H](CCC(N)=O)C(=O)N1CCC[C@H]1C(=O)N[C@@H](CCC(=O)O)C(=O)N[C@@H](CCC(N)=O)C(=O)O)C(C)C)[C@@H](C)CC)[C@@H](C)CC,Micrococcus luteus,broth microdilution,ATCC 4698,,2.06 µM
